Results from different studies.
± marks the error that the study gave.

Cc1c(Cl)c(C)[n+]([O-])c(Cl)c1-c1noc(-c2cc(O)c(O)c([N+](=O)[O-])c2)n1  AUC(0-last) (Parkinson's disease patients, plasma; oral, 50 mg, day 14, steady state, once daily): 2020 ± 783 ng·h/mL
CCCC[C@H](NC(C)=O)C(=O)N[C@H]1CCC(=O)NC[C@@H](C(=O)N[C@@H](Cc2c[nH]c3ccccc23)C(N)=O)NC(=O)[C@H](CCCNC(=N)N)NC(=O)[C@@H](Cc2ccccc2)NC(=O)[C@H](Cc2c[nH]cn2)NC1=O  AUC(0-last) (beagle dog, male, plasma; subcutaneous, 8.0 mg/kg daily, day 28): 1070 ng·h/mL
CCOc1ccc(Cc2cc([C@@H]3S[C@H](CO)[C@@H](O)[C@H](O)[C@H]3O)c(OC)cc2C)cc1  AUC(0-last) (Japanese type 2 diabetes patients, plasma; oral, 5 mg single dose, eGFR 60-89 mL/min/1.73 m^2): 2050 ± 390 ng·h/mL
CN[C@H](CC(C)C)C(=O)N[C@H]1C(=O)N[C@@H](CC(N)=O)C(=O)N[C@H]2C(=O)N[C@H]3C(=O)N[C@H](C(=O)N[C@H](C(=O)O)c4cc(O)cc(O)c4-c4cc3ccc4O)[C@H](O)c3ccc(c(Cl)c3)Oc3cc2cc(c3O[C@@H]2O[C@H](CO)[C@@H](O)[C@H](O)[C@H]2O[C@H]2C[C@](C)(N)[C@H](O)[C@H](C)O2)Oc2ccc(cc2Cl)[C@H]1O  AUC(0-last) (microdialysis; Danish Landrace pigs, cancellous bone; intravenous, 1000 mg, 100 min infusion, together with: meropenem): 59900 ng·h/mL
CCOCCn1c(C2CCN(CCc3ccc(C(C)(C)C(=O)O)cc3)CC2)nc2ccccc21  AUC(0-last) (healthy human subjects, plasma; oral, 20 mg, geometric LS mean): 699 ng·h/mL
CS(=O)(=O)n1cc2c(n1)CN([C@H]1CO[C@H](c3cc(F)ccc3F)[C@@H](N)C1)C2  AUC(0-last) (healthy male human, plasma; oral, 12.5 mg, fasted single dose): 11.4 µM·h
C[C@@H](O)[C@H]1C(=O)N2C(C(=O)O)=C(S[C@@H]3CN[C@H](C(=O)N(C)C)C3)[C@H](C)[C@H]12  AUC(0-last) (microdialysis; Danish Landrace pigs, cortical bone; intravenous, 1000 mg, 10 min infusion, together with: vancomycin): 5330 ng·h/mL
COc1cccc(N2CCN(C3=Nc4c(F)cccc4[C@H](CC(=O)O)N3c3cc(C(F)(F)F)ccc3OC)CC2)c1  AUC(0-last) (UHPLC-MS/MS; healthy women, plasma; intravenous infusion, 960 mg single dose, 60 min infusion, HPβCD formulation): 250000 ± 59400 ng·h/mL
C[C@]12C=CC(=O)C=C1CC[C@@H]1[C@@H]2[C@@H](O)C[C@@]2(C)[C@H]1C[C@H]1O[C@@H](C3CCCCC3)O[C@]12C(=O)CO  AUC(0-last) (children with asthma, serum; inhaled, 160 µg ciclesonide, day 7, HFA-MDI without spacer, steady state): 0.443 ± 0.043 ng·h/mL

A few entries again:
CCOc1ccc(Cc2cc([C@@H]3S[C@H](CO)[C@@H](O)[C@H](O)[C@H]3O)c(OC)cc2C)cc1  AUC(0-last) (Japanese type 2 diabetes patients, plasma; oral, 5 mg single dose, eGFR 60-89 mL/min/1.73 m^2): 2050 ± 390 ng·h/mL
